Published values gathered from unrelated publications.
Every numbered part comes from another study and shows a few of its results, in no order. Changes are numbered by the printed parent chain.

Sample 1 — target: UBE2Z UBC core domain (UniProt Q9H832); method: yeast two-hybrid; sample: yeast; setting: mostly zero background; reference: not given; direction: higher = stronger interaction
B1: MDM4 RING domain (UniProt O15151); chain MEDCQNLLKPCSLCEKRPRDGNIIHGRTGHLVTCFHCARRLKKAGASCPICKKEIQLVIKVF
B2: TRIM62 RING domain (UniProt Q9BVG3); chain MACSLKDELLCSICLSIYQDPVSLGCEHYFCRRCITEHWVRQEAQGARDCPECRRTFAEPALAP
B3: RNF133 RING domain (UniProt Q8WVZ7); chain DEEINPNGDSCVICFERYKPNDIVRILTCKHFFHKNCIDPWILPHGTCPICKCDILKVLGIQ
B4: SH3RF1 RING domain (UniProt Q7Z6J0); chain DESALLDLLECPVCLERLDASAKVLPCQHTFCKRCLLGIVGSRNELRCPECRTLVGSGVEEL
B5: ZMIZ2 RING domain (UniProt Q8NF64); chain GTIPGTPGPNGEDGVEQTAIKVSLKCPITFRRIQLPARGHDCRHIQCFDLESYLQLNCERGTWRCPVCNKTALLEGLEVDQYMLGILIYIQNSDYEEITIDPTCSWK
B6: DZIP3 RING domain (UniProt Q86Y13); chain PDEEEEEEEPCVICHENLSPENLSVLPCAHKFHAQCIRPWLMQQGTCPTCRLHVLLPEEFP
B7: DTX2 RING domain (UniProt Q86UW9); chain EELKVPPDEDCIICMEKLSTASGYSDVTDSKAIGSLAVGHLTKCSHAFHLLCLLAMYCNGNKDGSLQCPSCKTIYGEKTGTQ
Target sequence (chain): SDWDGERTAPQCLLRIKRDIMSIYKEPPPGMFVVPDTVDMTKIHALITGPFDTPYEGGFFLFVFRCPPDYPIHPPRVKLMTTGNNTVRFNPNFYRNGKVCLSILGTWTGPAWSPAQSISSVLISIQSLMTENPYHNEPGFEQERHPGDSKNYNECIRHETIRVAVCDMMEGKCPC
| Molecule | lacZ reporter activity |
| --- | --- |
| B1 (MDM4 RING domain) | 0 |
| AVPSGLEENLCKICMDSPIDCVLLECGHMVTCTKCGKRMNECPICRQYVIRAVHVF (RFFL RING domain (UniProt Q8WZ73)) | 0 |
| B2 (TRIM62 RING domain) | 0 |
| KLRKLKEAMLCMVCCEEEINSTFCPCGHTVCCESCAAQLQSCPVCRSRVEHVQHVY (MYLIP RING domain (UniProt Q8WY64)) | 0 |
| B3 (RNF133 RING domain) | 0 |
| NLSELTPYILCSICKGYLIDATTITECLHTFCKSCIVRHFYYSNRCPKCNIVVHQTQPLY (PCGF6 RING domain (UniProt Q9BYE7)) | 0 |
| B4 (SH3RF1 RING domain) | 0 |
| B5 (ZMIZ2 RING domain) | 0 |
| B6 (DZIP3 RING domain) | 0 |
| B7 (DTX2 RING domain) | 0 |
| KETIKKTTKPCPRCHVPVEKNGGCMHMKCPQPQCRLEWCWNCGCEWNRVCMG (PRKN RING domain (UniProt O60260)) | 0 |

Sample 2 — method: RNA Bind-n-Seq; molecule type: RNA; sample: in vitro; concentration: 1 µM; setting: whole 134-nt RNA, ends assumed; with: 150 mM KCl; reference: input library; direction: higher = stronger binding
Target: Ras GTPase-activating protein-binding protein 1, RRM domain (G3BP1, Homo sapiens, UniProt Q13283)
Chain of UniProt Q13283 (whole entry, looked up): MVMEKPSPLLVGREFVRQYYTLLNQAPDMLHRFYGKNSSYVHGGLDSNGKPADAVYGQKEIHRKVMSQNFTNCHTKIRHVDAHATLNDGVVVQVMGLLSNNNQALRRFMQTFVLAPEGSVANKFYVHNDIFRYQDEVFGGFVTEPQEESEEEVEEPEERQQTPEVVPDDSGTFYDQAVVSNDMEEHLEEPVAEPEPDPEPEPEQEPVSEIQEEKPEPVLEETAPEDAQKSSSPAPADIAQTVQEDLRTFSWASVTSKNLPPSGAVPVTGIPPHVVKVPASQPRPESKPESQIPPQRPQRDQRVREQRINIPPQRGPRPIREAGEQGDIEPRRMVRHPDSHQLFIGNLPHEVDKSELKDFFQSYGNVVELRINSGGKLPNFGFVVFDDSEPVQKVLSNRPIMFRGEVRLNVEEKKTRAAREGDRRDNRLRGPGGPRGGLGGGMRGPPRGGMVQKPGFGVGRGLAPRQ
All sequences stand within: GGGAGUUCUACAGUCCGACGAUC … UGGAAUUCUCGGGUGUCAAGG
| Oligonucleotide | log2 enrichment |
| --- | --- |
| UCAAGUCCUGUGCUACACAUCGUAUGUACCGAAUCGGAGGAAAAAGGUUUUUGGAAAGUAUUAUGUUACGCCGUUCGGAUCUGCACUUCC | -0.164 |
| GCAGGAAGUAAAAACAAAUGGAAAUGCUUCGGAUAGUGGCAGGGGUGGGGGUUGCUAAGGAAAGGGUGGGAUGGGAGUGUGUAAAGAGUU | 1.26 |
| UGUGAAAGAAAACCGAAGUUUUAAAUGACUUCUCAUGGUUAUUUUUUUUCCUUUCUCUUGCAGGACAUUGGGGACACAUUGAGCAGGUAU | -0.39 |
| AAGUCCUGUGCUACACAUCGUAUGUACCGAAUCGGUUUGGUUUUUUUGGUUUUUGGAAAGUAUUAUGUUACGCCGUUCGGAUCUGCACUU | -0.181 |
| GUCCUGUGCUACACAUCGUAUGUACCGAAUCGGGGUUUUUGGGGUUUGGGGUUUGGGGAAAGUAUUAUGUUACGCCGUUCGGAUCUGCAC | 1.88 |
| UGGGAGGUGGAUUUUGUUUAUUUUUUUAGCUCAUUUCCAGGGGUGGGAAUUUUUUUUUAAUAUGUGUCAUGAAUAAAGUUGUUUCUGAAA | 1.15 |
| UGGCCCUGGUGGCAUGCGGGGAGGAAGAGGUGGCCUCAUGGAUCGUGGUGGUCCCGGUGGAACGUUCAGAGGUGGCCGUGGUGGAGACAG | 0.734 |
| UGGCCCUGGUGGCAUGCGGGGAGGAAGAGGAGGCCUCAUGGAUCGUGGUGGUCCCGGUGGAAUGUUCAGAGGUGGCCGUGGUGGAGACAG | 0.813 |
| GCAGGAAGUAAAAACAAAUGGAAAUGCUACGGAUAGUGGCAGGGGUGGGGGUUGCUAAGGAAAGGGUGGGAUGGGAGUGGGUAAAGAGUU | 1.11 |
| CUCAAGUCCUGUGCUACACAUCGUAUGUACCGAAUCGGUGGAAAAAGGAAAGGAAAGUAUUAUGUUACGCCGUUCGGAUCUGCACUUCCA | -0.148 |
| UGGCCCUGGUGGCAUGCGGGGAGGAAGAGGUGGCCUCCUGGAUCGUGGUGGUCCCGGUGGAAUGUUCAGAGGUGGCCGUGGUGGAGACAG | 0.824 |
| CCUCAAGUCCUGUGCUACACAUCGUAUGUACCGAAUCGGUUUGGUUUGGAGGAAAGUAUUAUGUUACGCCGUUCGGAUCUGCACUUCCAG | -0.212 |
| AGUCCUGUGCUACACAUCGUAUGUACCGAAUCGGGUUUUUGGGAAAGGGAAAAAGGGAAAGUAUUAUGUUACGCCGUUCGGAUCUGCACU | 0.242 |
| UAACUUUAGAGGAGGAUCUGAUGGAUAUGGCAGUGGACGUGGAUUUGGGGAUGGCUAUAAUGGGUAUGGACGAGGACCUGGAGGUGGCAA | -0.298 |

Sample 3 — method: protein binding microarray; molecule type: double-stranded DNA, one strand shown; sample: in vitro; concentration: not given; reference: not given; direction: higher = stronger binding
Target: Histone acetyltransferase KAT6A, winged helix 1, GST fusion (KAT6A, Homo sapiens, UniProt Q92794, residues 1-85)
Setting: 8-mer, flanks averaged, mean of 2 arrays, mostly near background
Construct (chain): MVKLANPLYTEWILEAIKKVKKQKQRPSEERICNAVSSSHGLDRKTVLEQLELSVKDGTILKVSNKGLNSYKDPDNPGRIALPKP
| Oligonucleotide | E-score |
| --- | --- |
| CTATAGCC | -0.00371 |
| ACCGGGGC | 0.268 |
| CATACCCA | -0.242 |
| AAGCGAGT | 0.00934 |
| CGCCGCGC | 0.473 |
| AGATTCAA | -0.198 |
| AGCGCGAT | 0.326 |
| CGTTTTGA | -0.0413 |
| AGGGTCTC | -0.0736 |
| AGTGAGCC | -0.132 |
| CGGTAACC | 0.324 |
| CCCAGGCC | -0.0912 |
| CAATATCC | 0.00458 |
| CTGTCACC | -0.157 |
| AACCGCAC | -0.0172 |
| CTCAATGC | 0.0166 |
| AGCAACCT | 0.0306 |
| TCCGGAAA | 0.0979 |
| AAGTAAAG | -0.0506 |
| AAAGATCT | -0.116 |
| AAGCGCAC | 0.306 |
| CGGGAGAA | 0.0703 |
| AATCTCAA | -0.219 |
| ATGGTAGG | -0.171 |
| TAACCTGA | -0.17 |

Sample 4 — target: CCNA2, cyclin fold, Cln2 fusion (human); method: yeast growth competition, sequencing; sample: yeast; setting: strong parent motif; reference: not given; direction: higher = stronger binding
Starting sequence: CDC6 docking peptide (human); TLKGRRLVFDNQL; partner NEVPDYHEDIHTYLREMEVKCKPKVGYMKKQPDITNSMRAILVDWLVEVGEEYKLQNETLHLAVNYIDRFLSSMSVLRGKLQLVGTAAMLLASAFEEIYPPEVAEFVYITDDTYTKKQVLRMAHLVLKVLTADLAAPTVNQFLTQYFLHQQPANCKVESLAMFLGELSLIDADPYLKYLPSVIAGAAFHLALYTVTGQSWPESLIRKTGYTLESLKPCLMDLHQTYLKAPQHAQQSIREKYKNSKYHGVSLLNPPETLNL
| Change | normalised enrichment score |
| --- | --- |
| R5K F9L | 0.445 |
| D10T | 1.92 |
| D10V | 1.25 |
| V8T | 2.97 |
| V8R | 2.14 |
| G4I | 2.48 |
| V8Q | 2.04 |
| N11L | 2.09 |
| G4H | 1.82 |
| N11D | 3.63 |
| L2W | 3.11 |
| V8M | 2.32 |
| K3Q | 1.55 |
| Q12E | 3.36 |
| R6F | -0.156 |
| V8D | 4.23 |
| N11C | 2.83 |
| L7G | 0.633 |
| T1D | 1.33 |
| T1C | 2.62 |
| R5W | -0.198 |
| F9W | 1.59 |
| T1F | 2.58 |
| R5P | -0.473 |
| N11Y | 2.84 |

Sample 5 — method: EMSA with sequencing; molecule type: double-stranded DNA, one strand shown; sample: in vitro; concentration: 10 and 20 nM; reference: negative control set to 0; direction: higher = stronger binding
Target: Hepatocyte nuclear factor 3-alpha (Foxa1, Mus musculus, UniProt P35582, residues 1-468, full length assumed)
Setting: whole designed probe, mean of two concentrations, ends assumed
All sequences stand within: GTGAGCGGTGCCCATTGATGGGGAAC … TTTCACTGGGATCGTGGGGAC
Construct (chain): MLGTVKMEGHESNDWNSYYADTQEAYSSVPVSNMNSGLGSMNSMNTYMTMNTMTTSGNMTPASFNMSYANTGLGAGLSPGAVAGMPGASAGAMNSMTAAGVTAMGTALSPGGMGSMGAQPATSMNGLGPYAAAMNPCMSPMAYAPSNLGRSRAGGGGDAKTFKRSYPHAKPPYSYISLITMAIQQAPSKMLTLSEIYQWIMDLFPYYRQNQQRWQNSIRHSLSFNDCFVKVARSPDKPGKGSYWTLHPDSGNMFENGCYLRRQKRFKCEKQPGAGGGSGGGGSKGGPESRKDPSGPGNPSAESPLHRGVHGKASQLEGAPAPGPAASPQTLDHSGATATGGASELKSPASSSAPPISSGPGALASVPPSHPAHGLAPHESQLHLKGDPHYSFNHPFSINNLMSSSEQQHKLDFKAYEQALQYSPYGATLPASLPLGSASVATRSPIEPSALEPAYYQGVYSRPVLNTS
| Oligonucleotide | normalised bound fraction [ratio] |
| --- | --- |
| TATTTACTGACCTAAACTTGGCTGTAACAGCTCTTACTCCCTCAGAGGAGGTACATGAGAGTTAAATGAGGTAATGAATTGCGCAGCCATCTGTAAACATGACGAGGCTTTGTAAACAGAACTGGGACAACACAAACATTCGCTAGAATAATTCTCCCACTCCTTGAAAGAGTACACATCCCTTACCCCACCT | 0.398 |
| TAAAAAGCATTTAACCTAAGTACTGTTTTAGAGGTGACAAATTTAGTGGTGTGTCCCCATGAGAAAATATTTCAAACAATACCAAAATTCCTTGTTTACATATTACATCATCGTTCCTAGAAAATATATCTAAATCCTCTATTTTAGGTATAAAAGCAAAAAAAAGTAAGGTTTCAGTTGATTTCACTTAAAA | 0.295 |
| ATCTTCCCCCTCTTCCTTGCCCCACCAGCTCACCTTCCCGGGTTATTTGCACAAAGGAAAATAAATAAAGCCGGCATTCGTTAACCCTCTTCACGCGCATACTGCTGTTTGCTCTGGATGAATCATGGTCCTTTGGCGACGCCAGGCTCCGGGAGAGCAAAGCACCGTGTCAGGGCCATGATCCGGGCTCGCC | 0.368 |
| GTGGAAGAAGCAAATTATTTTTGTGTTAAAATGGATATTATCAACTGCAAAGAAAAAGGTGAATATTTCACAAGTGAGCCAGAACATTTACAGTGTAATCTAGAGCAGTTGCTACCTTTGCTTTTTTTTTCCCACTTCTTCAATATGATCACCATGCTTTTCATTACCCTGCTACTCAGTATTTCTAGTCAAC | -0.0545 |
| ATCTTCCCCCTCTTCCTTGCCCCACCAGCTCACCTTCCCGGGTTATTTGCAGATAGGAAAATAAATAAAGCCGGCATTCGTTAACCCTCTTCTGGCGCAAACTGCTGTTTGCTCTGGGTAAACTATGGTCCTTTGGCGACGCCAGGCTCCGGGAGAGCAAAGCACCGTGTCAGGGCCATGATCCGGGGTGGCC | 0.342 |
| GGTACAGGAAGTAAAAGGTTTCAGTATAAAATATTCAGTCTCCTCAGTGGAAAAGAACCTTCCATAACACAGATCAATAACAGGCTGCTTCCTGTTTACTCTGCCTAACTGGGGACTTTAGTATAAAACCTGATTACTGTTATCAGCAAGAAGCTGATTTGGCTGCTCTAAGGAGAGTCATCCAAATTAAAGA | 0.119 |
| TTAGGTCAACAGAGAAAAAAAAAAACTCCAGCCACTCCCGCCTCCCTTCCTTCCTCATTCCTCCACACAGCTAGCCTTTTAAAACAATCTAAGTAAACAGCAAAGTAACATCTATTTGAGTTACACATTGGTTCACATGCTGAGAAGAAGAAAAAAAAATGCCTATAAAAGTCTTTAGAAAAAGGAGAGGTTC | 0.364 |
| ATCTTCCCCCTCTTCCTTGCCCCACCAGCTCACCTTCCCGGGTTATTTGCAGATAGGAAAATAAATAAAGCCGGCATTCGTTAACGCAGTTCTGGCGCAAACTGCTGTTTGCTCTGGATGAATCATGGTCCTTTGGCGACGCCAGGCTCCGGGAGAGCAAAGCACCGTGTCAGGGCCATGATCCGGGCTCGCC | 0.343 |
